Published values from different studies.
Compare with care: the assays were run in different laboratories.
Technique: steady-state kinetics
B1: enzyme P89H (Thermobifida fusca, UniProt Q47RA9); chain MIMIMASKSSPHDLPDVSGLSIAVLGGTGDQGRGLARRFAMAGHEVILGSRSAERAQAVAAELGEGLPVRGMDNAGAAEAGDVVIVAVHWDGHRALLESLKDVLAGKIVVDCVNPLGFDKRGAYALPVEEGSAAEQAAAILPDSRVVAAFHHVSAVLLLDPEVEKVDLDVLVLGDDREATDVVRALAARIPGVRGVYGGRLRNAHQVEAFTANLISINRRYKAHAGIRITDI
B2: FMO3 E158K/E308G (Homo sapiens, UniProt P31513); chain GKKVAIIGAGVSGLASIRSCLEEGLEPTCFEKSNDIGGLWKFSDHAEEGRASIYKSVFSNSSKEMMCFPDFPFPDDFPNFMHNSKIQEYIIAFAKEKNLLKYIQFKTFVSSVNKHPDFATTGQWDVTTERDGKKESAVFDAVMVCSGHHVYPNLPKKSFPGLNHFKGKCFHSRDYKEPGVFNGKRVLVVGLGNSGCDIATELSRTAEQVMISSRSGSWVMSRVWDNGYPWDMLLVTRFGTFLKNNLPTAISDWLYVKQMNARFKHENYGLMPLNGVLRKEPVFNDELPASILCGIVSVKPNVKEFTGTSAIFEDGTIFEGIDCVIFATGYSFAYPFLDESIIKSRNNEIILFKGVFPPLLEKSTIAVIGFVQSLGAAIPTVDLQSRWAAQVIKGTCTLPSMEDMMNDINEKMEKKRKWFGKSETIQTDYIVYMDELSSFIGAKPNIPWLFLTDPKLAMEVYFGPCSPYQFRLVGPGQWPGARNAILTQWDRSLKPMQTRVVGRLQKPCFFFHWLKLFAIPILLIAVFLVLT
B3: sacB S422A (Priestia megaterium, UniProt D5DC07); chain KGNDSKDFNNSYGISHITRDNMVKIPQQQNSDQFKVPAFDESTIKNIASAKGKNASGNTIDLDVWDSWPLQNADGTVATYHGYQIVFALAGDPKDSNDTSVYLFYKKAGDKSIDSWKNAGRVFKDSDKFVPNDPHLKNQTQEWSGSGTLTKDGKVRLFYTDYSGKQYGKQTLTTAQVNMSQPNDNTLKVDGVEDYKSIFDGDGKIYQTVQQFIDEGGYDTGDNHTLRDPHYIEDNGHKYLVFEANTGTEDGYQGEDSLYNRAYYGGNNPFFQSEKKKLLEGSNKEKASLANGALGIIELNDDYTLKKVMKPLITSNTVTDEIERANIFKKDGKWYLFTDSRGSKMTIDGIGQDDVYMLGYVSNTLTGKYKPLNDTGLVLHMDLDPNDKTFTYAHFAVPQTKGDNVVITSYMTNRGFYEDNHSTFAPSFLVNIDGSKTSVVKDRVLEQGQLTVDED
B4: protein (Allochromatium vinosum, UniProt P45370); chain MFPIDIRPDKLTQEMLDYSRKLGQGMENLLNAEAIDTGVSPKQAVYSEDKLVLYRYDRPEGAPEAQPVPLLIVYALVNRPYMTDIQEDRSTIKGLLATGQDVYLIDWGYPDQADRALTLDDYINGYIDRCVDYLREAHGVDKVNLLGICQGGAFSLMYSALHPDKVRNLVTMVTPVDFKTPDNLLSAWVQNVDIDLAVDTMGNIPGELLNWTFLSLKPFSLTGQKYVNMVDLLDDPDKVKNFLRMEKWIFDSPDQAGETFRQFIKDFYQNNGFLNGGVVLGGQEVDLKDITCPVLNIFALQDHLVPPDASRALKGLTSSPDYTELAFPGGHIGIYVSGKAQKEVTPAIGKWLNER
B5: Saccharopine reductase C154S (Saccharomyces cerevisiae, UniProt P38999); chain MGKNVLLLGSGFVAQPVIDTLAANDDINVTVACRTLANAQALAKPSGSKAISLDVTDDSALDKVLADNDVVISLIPYTFHPNVVKSAIRTKTDVVTSSYISPALRELEPEIVKAGITVMNEIGLDPGIDHLYAVKTIDEVHRAGGKLKSFLSYSGGLPAPEDSDNPLGYKFSWSSRGVLLALRNSAKYWKDGKIETVSSEDLMATAKPYFIYPGYAFVCYPNRDSTLFKDLYHIPEAETVIRGTLRYQGFPEFVKALVDMGMLKDDANEIFSKPIAWNEALKQYLGAKSTSKEDLIASIDSKATWKDDEDRERILSGFAWLGLFSDAKITPRGNALDTLCARLEELMQYEDNERDMVVLQHKFGIEWADGTTETRTSTLVDYGKVGGYSSMAATVGYPVAIATKFVLDGTIKGPGLLAPYSPEINDPIMKELKDKYGIYLKEKTVA
B6: protein (Danio rerio, UniProt A0EXC5); chain MTESELYSVHKGVFVPTHLHPAESLKYYEDFIFRPDDILIVTYPKSGTIWMQEIVPLVVSEGDLTLVLTVPNWDRVPWLEEHRAILLSLEQRASPRIFATHFHHQMMNPSYFKIEPRVLYVMRNPKDVFISSFHYYGMASFLVNPGTQDEFMEKFLNGNIMFGSWFDHVKGWLNAAEQEHILYISYEEMINDLRASVEKIATFLGKSLSSEVVEKIADHCVFKNMKQNKMSNLSLVPEEFMDQKKSEFLRKGIAGDWKNHFSAAQEERFNAVYDDKMKDVKFKFPWD
B7: protein F222A (Planktothrix agardhii, UniProt F5B6Z0); chain MIVNVIQKDRLKEQKLQFIRNHQQAFDVEPIYPLPLFEDFVTSIEGDCSLEASCKIESDKLIASRFLLFFEDKTQEWQKYLHQSLTFFGLVENRVGVKINYSLLQQFLGSSFDFSKVTVLSAGIDLRNNLAESSLKMHIRIKDYPEKLDKAFALSDGAADGNYLKDFVNLIGFDFYFNGKSEIEIYAEVQEDDFFKPEINNLVWQHFPKTALQPLKASSLFATGLSKANNNPVLYYHLKNRQDLTNYFKLNDTAQRVHSFYQHQDILPYMWVGTAQKELEKTRIENIRLYYYKSFKMESN
B8: protein Y93P (Thermus thermophilus, UniProt Q5SKR5); chain MSAPKPFVIGIAGGTASGKTTLAQALARTLGERVALLPMDHYYKDLGHLPLEERLRVNYDHPDAFDLALYLEHAQALLRGLPVEMPVYDFRAPTRSPRRTPVRPAPVVILEGILVLYPKELRDLMDLKVFVDADADERFIRRLKRDVLERGRSLEGVVAQYLEQVKPMHLHFVEPTKRYADVIVPRGGQNPVALEMLAAKALARLARMGAA
B9: ADA (Homo sapiens, UniProt P00813); chain MAQTPAFDKPKVELHVHLDGSIKPETILYYGRRRGIALPANTAEGLLNVIGMDKPLTLPDFLAKFDYYMPAIAGCREAIKRIAYEFVEMKAKEGVVYVEVRYSPHLLANSKVEPIPWNQAEGDLTPDEVVALVGQGLQEGERDFGVKARSILCCMRHQPNWSPKVVELCKKYQQQTVVAIDLAGDETIPGSSLLPGHVQAYQEAVKSGIHRTVHAGEVGSAEVVKEAVDILKTERLGHGYHTLEDQALYNRLRQENMHFEICPWSSYLTGAWKPDTEHAVIRLKNDQANYSLNTDDPLIFKSTLDTDYQMTKRDMGFTEEEFKRLNINAAKSSFLPEDEKRELLDLLYKAYGMPPSASAGQNL
UniProt Q2RMD6, sequence (whole entry, looked up): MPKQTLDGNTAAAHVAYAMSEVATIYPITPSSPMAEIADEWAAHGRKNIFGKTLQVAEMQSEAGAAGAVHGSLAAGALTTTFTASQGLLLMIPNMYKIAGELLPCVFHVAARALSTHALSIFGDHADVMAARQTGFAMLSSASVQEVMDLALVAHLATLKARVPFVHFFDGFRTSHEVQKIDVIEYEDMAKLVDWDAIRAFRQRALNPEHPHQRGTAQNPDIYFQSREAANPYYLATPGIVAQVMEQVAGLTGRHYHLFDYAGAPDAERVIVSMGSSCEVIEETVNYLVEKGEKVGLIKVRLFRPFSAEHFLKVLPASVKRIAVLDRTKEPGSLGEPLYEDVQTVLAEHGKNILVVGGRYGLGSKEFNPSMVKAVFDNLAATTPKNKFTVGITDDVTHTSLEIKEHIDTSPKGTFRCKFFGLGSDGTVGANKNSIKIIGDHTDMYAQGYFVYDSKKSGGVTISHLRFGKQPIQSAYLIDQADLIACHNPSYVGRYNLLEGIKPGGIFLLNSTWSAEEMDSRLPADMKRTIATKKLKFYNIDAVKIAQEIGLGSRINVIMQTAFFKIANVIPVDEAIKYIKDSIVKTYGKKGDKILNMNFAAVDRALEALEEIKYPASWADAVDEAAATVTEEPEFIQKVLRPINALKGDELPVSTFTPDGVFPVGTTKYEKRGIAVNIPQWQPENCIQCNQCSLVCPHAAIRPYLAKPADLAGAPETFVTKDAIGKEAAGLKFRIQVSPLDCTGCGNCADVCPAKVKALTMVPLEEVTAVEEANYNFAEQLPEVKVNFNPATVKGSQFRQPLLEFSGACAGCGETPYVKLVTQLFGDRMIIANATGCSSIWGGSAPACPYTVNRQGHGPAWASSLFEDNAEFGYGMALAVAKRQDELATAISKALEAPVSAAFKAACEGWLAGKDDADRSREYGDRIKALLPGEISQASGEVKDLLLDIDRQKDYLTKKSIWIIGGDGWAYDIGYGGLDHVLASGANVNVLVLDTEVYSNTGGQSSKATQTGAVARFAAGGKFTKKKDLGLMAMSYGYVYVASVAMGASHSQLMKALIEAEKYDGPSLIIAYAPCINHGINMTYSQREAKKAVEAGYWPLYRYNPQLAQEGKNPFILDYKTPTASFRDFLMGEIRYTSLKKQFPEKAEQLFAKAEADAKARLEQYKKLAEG
UniProt P23262, sequence (whole entry, looked up): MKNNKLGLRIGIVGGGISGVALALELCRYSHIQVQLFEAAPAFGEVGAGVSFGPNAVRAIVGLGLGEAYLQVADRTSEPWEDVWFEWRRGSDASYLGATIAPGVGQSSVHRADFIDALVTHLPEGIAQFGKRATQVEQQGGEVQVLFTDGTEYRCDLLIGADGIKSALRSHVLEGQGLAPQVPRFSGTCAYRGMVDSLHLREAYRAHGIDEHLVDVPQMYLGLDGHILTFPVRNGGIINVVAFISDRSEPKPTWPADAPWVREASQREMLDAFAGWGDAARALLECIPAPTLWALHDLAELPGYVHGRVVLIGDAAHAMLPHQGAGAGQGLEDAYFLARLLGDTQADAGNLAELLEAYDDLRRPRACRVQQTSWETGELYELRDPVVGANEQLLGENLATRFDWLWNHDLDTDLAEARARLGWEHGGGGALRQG

`B1 (enzyme P89H)` gave a Km of 20000 µM (NC(=O)c1ccc[n+](CCO)c1; pH 8, 25 °C).
For `B2 (FMO3 E158K/E308G)`, the Km was 2200 µM (CN1CCC[C@H]1c1cccnc1; HEK293 microsomes; 37 °C, not purified, added: NADPH regenerating system).
`B3 (sacB S422A)` gave a Km of 19900 µM (OC[C@H]1O[C@@](CO)(O[C@H]2O[C@H](CO)[C@@H](O)[C@H](O)[C@H]2O)[C@@H](O)[C@@H]1O; pH 6.6).
With `B4 (protein)` the Km was 50 µM (C#CC[C@@H](O)CC(=O)SCCNC(=O)CCNC(=O)[C@H](O)C(C)(C)COP(=O)(O)OP(=O)(O)OC[C@H]1O[C@@H](n2cnc3c(N)ncnc32)[C@H](O)[C@@H]1OP(=O)(O)O; pH 7.8, 30 °C).
`enzyme (Scutellaria baicalensis, UniProt A0A146AUQ2)` gave a Km of 172 µM (O=C(O)/C=C/c1ccccc1; pH 7.8, apparent).
For `B5 (Saccharopine reductase C154S)`, the Km was 280 µM (NC(=O)c1ccc[n+]([C@@H]2O[C@H](COP(=O)(O)OP(=O)(O)OC[C@H]3O[C@@H](n4cnc5c(N)ncnc54)[C@H](OP(=O)(O)O)[C@@H]3O)[C@@H](O)[C@H]2O)c1; pH 9, 25 °C, added: saccharopine).
With `B6 (protein)` the Km was 7.73 µM (C[C@H](CCCC(CO)CO)[C@H]1CC[C@H]2[C@@H]3[C@H](O)C[C@H]4C[C@H](O)CC[C@]4(C)[C@H]3C[C@H](O)[C@]12C; pH 7, 28 °C, substrate inhibition, added: PAPS 14 µM).
For `nahG (Pseudomonas putida, UniProt P23262)`, the Km was 2.4 µM (Cc1cc2nc3c(=O)[nH]c(=O)nc-3n(C[C@H](O)[C@H](O)[C@H](O)COP(=O)(O)O)c2cc1C; pH 8.5, 25 °C, no AMP, apparent, cofactor varied, added: NADH 200 µM, salicylate 150 µM).
With `B7 (protein F222A)` the Km was 1100 µM (CC(C)=CCOP(=O)(O)OP(=O)(O)O; added: tri-Tyr peptide acceptor).
For `B8 (protein Y93P)`, the Km was 555 µM (Nc1ccn([C@@H]2O[C@H](CO)[C@@H](O)[C@H]2O)c(=O)n1; pH 7.2, 25 °C, KCl 100 mM, added: ATP 100–200 µM).
For `PFOR (Moorella thermoacetica, UniProt Q2RMD6)`, the Km was 490 µM (CC(=O)C(=O)O; pH 7.6, no magnesium, added: CoA 1 mM, methyl viologen 10 mM, TPP 1 mM).
The Km of `B9 (ADA)` is reported as 54.9 µM (Nc1ncnc2c1ncn2[C@@H]1O[C@H](CO)C[C@H]1O; HEK293, cell homogenate; pH 5.8, 37 °C, not purified).

Excerpt of the above:
With `B6 (protein)` the Km was 7.73 µM (C[C@H](CCCC(CO)CO)[C@H]1CC[C@H]2[C@@H]3[C@H](O)C[C@H]4C[C@H](O)CC[C@]4(C)[C@H]3C[C@H](O)[C@]12C; pH 7, 28 °C, substrate inhibition, added: PAPS 14 µM).
`B1 (enzyme P89H)` gave a Km of 20000 µM (NC(=O)c1ccc[n+](CCO)c1; pH 8, 25 °C).
